Assay results of several laboratories.
Several values in a cell are separate wells, animals, samples, runs or records. Numbers after ± are the reported error.
lasR: Transcriptional activator protein LasR (lasR, Pseudomonas aeruginosa, UniProt P25084)
Chain of UniProt P25084 (whole entry, looked up): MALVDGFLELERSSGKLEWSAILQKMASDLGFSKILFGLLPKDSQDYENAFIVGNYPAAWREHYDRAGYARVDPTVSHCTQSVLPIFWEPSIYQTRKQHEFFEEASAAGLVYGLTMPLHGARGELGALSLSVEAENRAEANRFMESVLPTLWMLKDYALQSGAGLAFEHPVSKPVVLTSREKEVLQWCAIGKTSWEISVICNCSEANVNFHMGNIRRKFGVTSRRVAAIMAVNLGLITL
Adra1a: Alpha-1A adrenergic receptor (Adra1a, Rattus norvegicus, UniProt P43140)
Chain of UniProt P43140 (whole entry, looked up): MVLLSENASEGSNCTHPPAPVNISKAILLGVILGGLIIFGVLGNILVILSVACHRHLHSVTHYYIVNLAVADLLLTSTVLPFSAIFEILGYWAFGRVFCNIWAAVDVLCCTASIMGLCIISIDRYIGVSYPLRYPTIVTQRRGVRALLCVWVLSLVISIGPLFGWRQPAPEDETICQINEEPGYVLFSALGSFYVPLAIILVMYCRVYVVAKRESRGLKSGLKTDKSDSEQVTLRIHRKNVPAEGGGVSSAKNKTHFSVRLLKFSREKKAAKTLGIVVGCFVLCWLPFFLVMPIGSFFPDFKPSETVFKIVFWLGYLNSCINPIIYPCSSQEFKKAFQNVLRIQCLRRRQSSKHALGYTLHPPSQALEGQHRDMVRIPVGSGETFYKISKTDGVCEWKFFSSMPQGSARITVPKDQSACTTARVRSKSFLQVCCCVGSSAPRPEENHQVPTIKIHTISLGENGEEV
Chain of UniProt Q96PF2 (whole entry, looked up): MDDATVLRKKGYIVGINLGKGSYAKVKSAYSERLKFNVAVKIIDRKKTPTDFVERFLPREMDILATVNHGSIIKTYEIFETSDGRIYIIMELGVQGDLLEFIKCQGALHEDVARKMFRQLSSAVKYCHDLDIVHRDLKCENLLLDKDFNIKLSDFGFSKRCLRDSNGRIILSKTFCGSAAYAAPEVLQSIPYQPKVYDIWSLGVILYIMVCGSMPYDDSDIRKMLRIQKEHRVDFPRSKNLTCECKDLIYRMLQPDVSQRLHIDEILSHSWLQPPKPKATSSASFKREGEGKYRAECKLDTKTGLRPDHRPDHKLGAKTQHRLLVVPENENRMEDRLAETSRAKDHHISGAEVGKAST
Chain of UniProt P35916 (whole entry, looked up): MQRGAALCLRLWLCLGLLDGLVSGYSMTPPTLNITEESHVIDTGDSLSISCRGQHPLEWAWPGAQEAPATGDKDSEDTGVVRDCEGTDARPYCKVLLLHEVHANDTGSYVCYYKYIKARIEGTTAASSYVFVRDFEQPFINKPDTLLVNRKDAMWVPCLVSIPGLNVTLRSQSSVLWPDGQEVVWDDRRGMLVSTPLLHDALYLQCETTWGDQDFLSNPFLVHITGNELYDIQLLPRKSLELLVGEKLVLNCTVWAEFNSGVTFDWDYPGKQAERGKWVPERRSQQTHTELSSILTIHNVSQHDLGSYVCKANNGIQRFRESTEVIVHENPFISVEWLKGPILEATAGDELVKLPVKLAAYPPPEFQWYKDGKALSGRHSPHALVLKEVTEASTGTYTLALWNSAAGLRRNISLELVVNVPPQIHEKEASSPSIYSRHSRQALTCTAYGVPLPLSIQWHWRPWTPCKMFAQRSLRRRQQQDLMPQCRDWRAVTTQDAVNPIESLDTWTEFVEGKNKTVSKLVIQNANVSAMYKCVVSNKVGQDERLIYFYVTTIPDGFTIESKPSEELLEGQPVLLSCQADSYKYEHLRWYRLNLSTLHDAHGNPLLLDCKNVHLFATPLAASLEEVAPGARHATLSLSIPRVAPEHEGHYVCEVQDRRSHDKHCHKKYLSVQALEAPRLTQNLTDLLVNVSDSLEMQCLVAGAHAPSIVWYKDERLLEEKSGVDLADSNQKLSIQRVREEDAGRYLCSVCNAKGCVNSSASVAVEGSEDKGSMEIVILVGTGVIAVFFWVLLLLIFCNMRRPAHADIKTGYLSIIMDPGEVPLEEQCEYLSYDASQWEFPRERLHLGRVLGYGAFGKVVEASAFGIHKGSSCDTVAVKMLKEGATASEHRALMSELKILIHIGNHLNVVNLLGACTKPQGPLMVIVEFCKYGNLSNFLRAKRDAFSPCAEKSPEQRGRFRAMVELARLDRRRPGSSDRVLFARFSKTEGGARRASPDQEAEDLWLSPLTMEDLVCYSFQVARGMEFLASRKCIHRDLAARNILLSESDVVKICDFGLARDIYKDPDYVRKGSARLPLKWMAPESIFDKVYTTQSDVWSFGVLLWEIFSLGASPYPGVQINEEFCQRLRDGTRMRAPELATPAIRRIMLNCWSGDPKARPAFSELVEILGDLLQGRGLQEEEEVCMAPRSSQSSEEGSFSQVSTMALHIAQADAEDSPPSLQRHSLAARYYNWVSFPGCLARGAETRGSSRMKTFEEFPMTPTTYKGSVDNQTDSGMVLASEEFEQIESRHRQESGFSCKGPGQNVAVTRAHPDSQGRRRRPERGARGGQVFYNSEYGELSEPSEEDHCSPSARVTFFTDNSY
Chain of UniProt Q5JUK3 (whole entry, looked up): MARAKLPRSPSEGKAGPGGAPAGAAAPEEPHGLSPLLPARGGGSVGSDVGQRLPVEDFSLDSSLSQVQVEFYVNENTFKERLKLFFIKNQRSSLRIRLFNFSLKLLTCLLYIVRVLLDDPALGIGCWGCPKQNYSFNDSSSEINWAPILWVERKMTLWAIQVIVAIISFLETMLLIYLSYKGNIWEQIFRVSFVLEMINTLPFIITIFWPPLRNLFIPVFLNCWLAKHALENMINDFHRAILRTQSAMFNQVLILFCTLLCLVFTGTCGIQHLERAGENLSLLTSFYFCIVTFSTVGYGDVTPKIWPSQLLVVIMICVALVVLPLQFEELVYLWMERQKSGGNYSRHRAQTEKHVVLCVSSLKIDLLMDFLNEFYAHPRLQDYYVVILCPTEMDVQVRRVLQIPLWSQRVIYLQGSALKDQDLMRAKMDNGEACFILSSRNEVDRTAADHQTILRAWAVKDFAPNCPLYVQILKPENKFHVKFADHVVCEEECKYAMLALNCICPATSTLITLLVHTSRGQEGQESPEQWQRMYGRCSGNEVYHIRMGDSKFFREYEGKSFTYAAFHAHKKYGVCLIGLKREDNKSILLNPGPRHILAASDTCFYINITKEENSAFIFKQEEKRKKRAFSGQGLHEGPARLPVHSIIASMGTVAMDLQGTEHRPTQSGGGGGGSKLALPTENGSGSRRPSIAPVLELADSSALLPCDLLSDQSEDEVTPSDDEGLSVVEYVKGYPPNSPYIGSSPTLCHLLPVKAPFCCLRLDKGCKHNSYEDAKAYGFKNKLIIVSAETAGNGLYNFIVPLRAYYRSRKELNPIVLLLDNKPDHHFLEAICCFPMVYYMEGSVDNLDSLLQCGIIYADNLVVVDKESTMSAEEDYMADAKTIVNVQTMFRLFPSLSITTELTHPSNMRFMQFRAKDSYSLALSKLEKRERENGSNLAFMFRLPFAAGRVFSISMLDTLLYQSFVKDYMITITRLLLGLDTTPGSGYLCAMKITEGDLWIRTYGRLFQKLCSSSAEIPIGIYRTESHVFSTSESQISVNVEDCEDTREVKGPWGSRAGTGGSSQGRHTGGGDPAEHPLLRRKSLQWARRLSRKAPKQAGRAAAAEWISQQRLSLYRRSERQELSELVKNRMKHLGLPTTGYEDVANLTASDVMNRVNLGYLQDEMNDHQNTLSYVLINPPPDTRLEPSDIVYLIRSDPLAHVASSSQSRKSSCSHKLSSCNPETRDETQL
Chain of UniProt Q2FDS6 (whole entry, looked up): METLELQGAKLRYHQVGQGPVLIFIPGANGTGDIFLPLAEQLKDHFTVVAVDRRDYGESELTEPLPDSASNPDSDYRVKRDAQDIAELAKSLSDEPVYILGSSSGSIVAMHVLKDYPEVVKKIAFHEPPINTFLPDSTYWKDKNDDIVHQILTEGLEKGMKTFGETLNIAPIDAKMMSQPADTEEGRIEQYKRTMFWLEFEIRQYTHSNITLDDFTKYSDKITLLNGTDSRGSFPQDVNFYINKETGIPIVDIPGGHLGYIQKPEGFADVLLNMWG
Chain of UniProt Q9H093 (whole entry, looked up): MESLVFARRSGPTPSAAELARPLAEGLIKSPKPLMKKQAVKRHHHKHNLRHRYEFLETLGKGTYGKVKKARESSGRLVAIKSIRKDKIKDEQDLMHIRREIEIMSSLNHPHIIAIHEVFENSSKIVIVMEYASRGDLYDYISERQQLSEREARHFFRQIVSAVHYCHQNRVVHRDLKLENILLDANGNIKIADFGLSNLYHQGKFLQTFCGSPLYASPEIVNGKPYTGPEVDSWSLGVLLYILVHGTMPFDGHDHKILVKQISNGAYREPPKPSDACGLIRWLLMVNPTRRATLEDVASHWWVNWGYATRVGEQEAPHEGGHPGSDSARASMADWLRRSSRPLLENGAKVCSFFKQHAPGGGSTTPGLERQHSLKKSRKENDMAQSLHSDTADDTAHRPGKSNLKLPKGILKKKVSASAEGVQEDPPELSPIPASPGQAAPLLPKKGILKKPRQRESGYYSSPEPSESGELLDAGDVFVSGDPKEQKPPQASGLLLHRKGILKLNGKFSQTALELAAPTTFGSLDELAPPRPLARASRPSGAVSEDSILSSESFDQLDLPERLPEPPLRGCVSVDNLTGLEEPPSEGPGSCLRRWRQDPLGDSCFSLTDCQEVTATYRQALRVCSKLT
Chain of UniProt P48729 (whole entry, looked up): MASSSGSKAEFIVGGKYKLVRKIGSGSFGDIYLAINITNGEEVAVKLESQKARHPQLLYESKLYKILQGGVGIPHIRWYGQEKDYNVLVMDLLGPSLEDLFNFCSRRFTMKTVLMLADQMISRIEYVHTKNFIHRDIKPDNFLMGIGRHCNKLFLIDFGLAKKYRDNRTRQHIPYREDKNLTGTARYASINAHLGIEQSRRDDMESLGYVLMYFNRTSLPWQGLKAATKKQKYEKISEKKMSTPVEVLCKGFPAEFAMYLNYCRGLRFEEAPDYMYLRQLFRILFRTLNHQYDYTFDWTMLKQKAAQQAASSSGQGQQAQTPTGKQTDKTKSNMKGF

| SMILES | target | test | system | setting | inhibition |
| --- | --- | --- | --- | --- | --- |
| Cc1ccsc1CNc1ccccc1OC1CC(=O)N1 (stereo not drawn) | Uncharacterized hydrolase SAUSA300_2518 (Staphylococcus aureus, UniProt Q2FDS6) | enzyme activity, inhibitor | – | 50 µM | 52.2% |
| CCCCCC(=O)CC(=O)N[C@H]1CCOC1=O | lasR | reporter gene, antagonist | Escherichia coli JLD271 | 10 µM, pSC11 and pJN105L plasmids, together with: OdDHL 2 nM | -16% |
| CC(=O)NC[C@@H]1C[C@@H](O)[C@H]2[C@H](O)C[C@@H](CO)N12 | β-N-acetylglucosaminidase | enzyme activity, inhibitor, colorimetric | Canavalia ensiformis | 150 nM, together with: p-nitrophenyl GlcNAc substrate | 48.1% and 43.6% |
| CS(C)(=O)=Nc1ccc(-c2ccc(-c3nc4cc(O[C@@H]5CO[C@H]6[C@@H]5OC[C@H]6O)[nH]c4cc3F)cc2)cc1 | TSSK2 (Homo sapiens, UniProt Q96PF2) | enzyme activity, inhibitor | – | 10 µM | 12% |
| CN[C@@H]1[C@H](O)[C@H](NC)[C@H]2O[C@]3(O)[C@H](O[C@@H]2[C@H]1O)O[C@H](C)C[C@H]3NC(=O)Cc1cc(Cl)ccn1 | Adra1a | ligand displacement, radioligand | – | 10 µM | 12% |
| O=C(CCCc1ccccc1)NC1CCOC1=O (stereo not drawn) | lasR | reporter gene, antagonist | Escherichia coli JLD271 | 10 µM, pSC11 and pJN105L plasmids, together with: OdDHL 2 nM | 55% |
| CC(C)CC1NCCc2cc(O)c(O)cc21 (stereo not drawn) | tyrosinase | enzyme activity, inhibitor | – | 100 µM, together with: levodopa | 15.4 ± 1.58% |
| O=C(Nc1ccccc1NC(=O)c1cccc(Cl)c1)c1cccc(Cl)c1 | lasR | reporter gene, antagonist | Pseudomonas aeruginosa PAO-JP2 | 100 µM, plasI-LVAgfp reporter, together with: OdDHL 150 nM | 79% |
| Cc1cc(-c2ccc3ccccc3c2)nnc1NCCN1CCN(C)CC1 | Slc6a4 (Rattus norvegicus, UniProt P31652) | monoamine uptake, inhibitor | rat synaptosomes | 10000 nM | 94% |
| CC(C)[C@H]1NC(=O)C[C@H]2/C=C/CCSSC[C@@H](NC1=O)C(=O)N[C@H](Cc1cccc3ccccc13)C(=O)NCC(=O)O2 | NUAK2 (Homo sapiens, UniProt Q9H093) | enzyme activity, inhibitor | – | 10 µM | -1.5% |
| O=C(CN1CN(c2ccccc2)C2(CCN(C(=O)c3cnc4[nH]ncc4c3)CC2)C1=O)NCC(F)(F)F | Ribosomal protein S6 kinase alpha-6, N-terminal kinase domain (RPS6KA6, Homo sapiens, UniProt Q9UK32) | inhibitor | – | concentration not given | < 50% |
| COc1ccccc1N1CCN(CCCCN2CCCc3ccccc3C2=O)CC1 | HTR1E (Homo sapiens, UniProt P28566) | radioligand binding | – | concentration not given, together with: [3H]5-HT | -11.4% |
| COc1ccc2c(c1O)-c1c(O)c(OC)cc3c1[C@H](C2)[N+](C)(C)CC3 | PDE4D (Homo sapiens, UniProt Q08499) | enzyme activity, inhibitor, radiometric | – | 50 µM | 81.9% |
| N[C@H](C(=O)N1CCCC1)C1CCN(c2nccc3c(-c4ncc(Cl)cc4Cl)cccc23)CC1 | CSNK1A1 (Homo sapiens, UniProt P48729) | kinase activity, inhibitor | – | 10 µM, together with: ATP 1 mM | -0.8% |
| C[C@H](NCc1ccc(-c2ccc(C(F)(F)F)cc2)cc1)C(N)=O | Adra1a | radioligand binding, SafetyScreen panel | – | 1 µM, species rat, together with: 0.25 nM [3H]Prazosin | 5% |
| CCC1CC(c2ccc(C(=O)O)cc2C)=NN1c1ccc(C#N)c(Cl)c1 (stereo not drawn) | DNA (cytosine-5)-methyltransferase 3B, with DNMT3L (DNMT3B, Homo sapiens, UniProt Q9UBC3) | enzyme activity | – | 10 µM | 0% |
| CN(/N=C/c1ccccc1C(=O)O)c1nc(-c2ccccc2Cl)cs1 | MAP4K1 (Homo sapiens, UniProt Q92918) | enzyme activity, inhibitor | – | 1 µM | -10.3% |
| C=CC(=O)Nc1cc(-c2nn(C3CCC(N4CCN(C(C)=O)CC4)CC3)c3ncnc(N)c23)ccc1Oc1ccccc1 (stereo not drawn) | ARAF (Homo sapiens, UniProt P10398) | inhibitor, KiNativ profiling | biochemical | 2 µM | 10.8% |
| O=P(Nc1cccc(F)c1)(Oc1ccc(Cl)cc1)Oc1ccc(Cl)cc1 | KCNT1 (Homo sapiens, UniProt Q5JUK3) | ion current, inhibitor, patch clamp | HEK293 | 10 µM | > 40% |
| CCCCCCC(=O)N[C@H]1CCOC1=O | lasR | reporter gene, antagonist | Escherichia coli JLD271 | 10 µM, pSC11 and pJN105L plasmids, together with: OdDHL 2 nM | 54% |
| O=C(O)c1ccccc1/C=N/Nc1nc(-c2ccccc2Cl)cs1 | FLT4 (Homo sapiens, UniProt P35916) | enzyme activity, inhibitor | – | 1 µM | -0.86% |
| CN(C)[C@H]1C[C@@]23CC[C@@]4(O2)C(=CC[C@]2(C)[C@@H](c5ccc6ccncc6c5)CC[C@H]24)C=C3[C@@H](O)[C@@H]1O | EPHA1 (Homo sapiens, UniProt P21709) | ATP probe labelling, inhibitor, KiNativ profiling | – | 0.1 µM | 3.8% |
| CCCCCCCCCC(=O)CC(=O)N[C@H]1CCOC1=O | lasR | reporter gene, antagonist | Pseudomonas aeruginosa PAO-JP2 | 100 µM, plasI-LVAgfp reporter, together with: OdDHL 150 nM | -98% |
| CC(=O)NC[C@@H]1[C@@H](O)C[C@H]2[C@H](O)C[C@@H](CO)N12 | β-N-acetylglucosaminidase | enzyme activity, inhibitor, colorimetric | Canavalia ensiformis | 2.14 nM, together with: p-nitrophenyl GlcNAc substrate | 20.3% and 14.7% |

Repeated from above:
| SMILES | target | test | system | setting | inhibition |
| --- | --- | --- | --- | --- | --- |
| O=P(Nc1cccc(F)c1)(Oc1ccc(Cl)cc1)Oc1ccc(Cl)cc1 | KCNT1 (Homo sapiens, UniProt Q5JUK3) | ion current, inhibitor, patch clamp | HEK293 | 10 µM | > 40% |
| CCCCCCC(=O)N[C@H]1CCOC1=O | lasR | reporter gene, antagonist | Escherichia coli JLD271 | 10 µM, pSC11 and pJN105L plasmids, together with: OdDHL 2 nM | 54% |
